Experimental data gathered from unrelated publications.
Each numbered part is a random draw from the data of one study; scales do not carry over between parts. Positions count from the first letter of the parent shown.

Block 1 — cell line: HEK-293T-ACE2-TMPRSS2; technique: cell count; tested at: concentration not given; measurement: viability
COc1ccc(CNC(=O)C2(C)Cc3ccccc3C(=O)N2Cc2cccc(Cl)c2)cc1 (centres unmarked): 69%
CC(C)c1cc(C(=O)NCc2noc(-c3cccs3)n2)n(C)n1: 65%
CN(Cc1cccc(C(=O)Nc2nccn2C)c1)C1Cc2ccccc2C1: 90%
CC(C)(C)NC(=S)N/N=C/C=N/NC(=S)NC(C)(C)C: 65%

Block 2 — technique: RNA Bind-n-Seq; molecule type: RNA; sample: in vitro; tested at: 15 pmol; notes: 4-mer, random 30-nt RNA, single round; together with: 3 µM DMDA-PatA, 2 mM AMP-PNP; reference: input library; direction: higher = stronger binding; measurement: 4-mer enrichment
Target: Eukaryotic initiation factor 4A-I (EIF4A1, Homo sapiens, UniProt P60842, residues 1-406, full length assumed)
Sequence of UniProt P60842 (whole entry, looked up): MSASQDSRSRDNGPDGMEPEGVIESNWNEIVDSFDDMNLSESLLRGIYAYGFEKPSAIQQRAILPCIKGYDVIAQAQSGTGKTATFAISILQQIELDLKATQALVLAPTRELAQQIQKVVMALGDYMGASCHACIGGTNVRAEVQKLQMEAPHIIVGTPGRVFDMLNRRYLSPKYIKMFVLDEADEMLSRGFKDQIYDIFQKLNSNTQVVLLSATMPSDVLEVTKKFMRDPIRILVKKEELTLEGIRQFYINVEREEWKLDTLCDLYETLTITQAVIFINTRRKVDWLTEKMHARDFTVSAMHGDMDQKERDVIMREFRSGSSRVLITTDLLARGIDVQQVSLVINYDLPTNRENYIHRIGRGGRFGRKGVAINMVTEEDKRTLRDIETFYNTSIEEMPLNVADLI
ACUU: 0.903 fold
UUUC: 0.852 fold
UUUA: 1.13 fold
GGGA: 1.24 fold
UUCC: 0.56 fold
AUGA: 1.11 fold
ACGC: 0.621 fold
GUUA: 1.36 fold

Block 3 — target: CCND2, cyclin fold, Cln2 fusion (human); technique: yeast growth competition, sequencing; sample: yeast; notes: strong parent motif; reference: not given; direction: higher = stronger binding; measurement: normalised enrichment score; starting sequence: viral docking peptide; YKVKRRLVFGADD
YKVKRRLVIGADD [F9I]: 0.364
YKKKRRLVFGADD [V3K]: 0.583
YKVKRSLVFGADD [R6S]: 0.234
YWVKRRLVFGADD [K2W]: 0.253
YKVKRRLVFGWDD [A11W]: 1.17
YKVKRRLVFGAVD [D12V]: 0.959
YKVKRRLVFGQDD [A11Q]: 1.02
YKVKRRLVFGYDD [A11Y]: 1.21
YKVKMRLVFGADD [R5M]: -0.226
YKEKRRLVFGADD [V3E]: 0.0795
YKVQRRLVFGADD [K4Q]: 1.81
YKVKRRLVFGAED [D12E]: 1
YKVKRRLVFIADD [G10I]: 0.94
YKVKRRLVYGADD [F9Y]: 0.531
YKVKQRLVFGADD [R5Q]: 0.283
YKVKRRLVFGAFD [D12F]: 0.809
YKGKRRLVFGADD [V3G]: 0.371
YKVKRRLKFGADD [V8K]: 0.708
YKDKRRLVFGADD [V3D]: 0.15
YKVKTRLVFGADD [R5T]: 0.263
YKVKRTLVFGADD [R6T]: 0.166
YKVKPRLVFGADD [R5P]: 0.3
YKVKRRLVFGDDD [A11D]: 2.48
YKVKRRLVFMADD [G10M]: 0.79
YKVKRNLVFGADD [R6N]: 0.297

Block 4 — technique: RNA Bind-n-Seq; molecule type: RNA; sample: in vitro; tested at: 365 nM; reference: no-protein control; direction: higher = stronger binding; measurement: RBNS enrichment (R)
Target: RNA binding protein fox-1 homolog 2, RRM domain, GST-SBP tag (RBFOX2, Homo sapiens, UniProt O43251-10, residues 100-194)
Notes: natural RNA segment, single round, ends assumed
Constant ends, left off below: GGGAGUUCUACAGUCCGACGAUC … UGGAAUUCUCGGGUGCCAA
UCCCAGAUGAUGACAAUGAAAUUAGUGCCUGUUUUCUUGCAAAUUUAGCACUGGGGACACUUAAAGUCUCUGCUGUCUAUGGAGUUGAUUUGGAAAUACCUUCCUGGCCC: 0.685
GAGCUACUCUGGUUGGUAAUACUCUGUGCACACAUCAUUGUAGCCACACAUCAUUGCUGGGAGAAUUAAGCAUUAUCCUGAAGACUCUGCCAGGAGAGGAUAAUUGGAAG: 0.511
AAAACCAAGCAUUGUGUACAGGAGCUAGGGCAGCGCAGGAGGCCCUUUCAGUUGGAGAGGCAGGUUGCUUUAAUGUCACUCUGACCUGCGUUGUUUGACUAUUUUAUAAU: 1.4
CUUCGGCCAGUCUUAAACGGGUGUCAGCAAGAAGAAAAAUUAACAAAAGACAGAAGGCCUGACUUUGGGGGGUUAGGGCAAGGGGUUCCUCUGGAUUGCAGACCACAUCG: 1.23
GGUGGGGGCUUCACAAGCAACAUCACUCCCCUCAACAGAACGCAAUGGAAAGAAAGCAUCCCCCCACCCCCUCUGGGUUCGAGCGUUCACCGUCUCCGCACUGUGCCUGC: 0.869
AAAAAUUAUUUUACCUACAGAGAGGUUGUAGUUUUGAGCACAUGUUAGUUCCUCCCUCUUCCCGAUGUUCAUCUUCUAAGUAAGGGACAGCAUGCUACAGGACAGACCUG: 3.37
GAGAAAGCUAUCAUGUUCCCGAAGUGCCUUGUUUUCUCUGAUAGAAAUAUAUUUAUAAGGACCUAUUCCAAUAGGCUCUUGGUGUUUCCCAUAUCAAGAUUUCUGCUAGC: 0.447
AGAUCCAGUCUAUAAUUACAGAUUUUGUAAGAAAAAAUAUAUAUACACAUAACUGACUGGAAAGAAUUAAUUUCUUUCCCCCAGCUUAAUGCAUGUUGAGGAUAUUGAGC: 2.62

Block 5 — observed: peptide-MHC binding; molecule type: peptide; tested at: concentration not given; measurement: binding
Target: HLA class I histocompatibility antigen, A alpha chain, allele A*80:01 (Homo sapiens, UniProt P04439)
WDAYIPHYV: inactive
VPHVIEEVM: inactive
VRDVVMPAL: inactive

Block 6 — target: ATF2, bZIP domain (human); technique: DHFR protein complementation; sample: yeast; reference: wild-type JUN-FOS pair; direction: higher = stronger binding; measurement: binding fitness
Notes: single substitutions, most at no-binding floor
Starting sequence: JUN, bZIP domain (human); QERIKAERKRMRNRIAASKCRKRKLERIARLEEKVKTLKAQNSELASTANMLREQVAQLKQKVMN; partner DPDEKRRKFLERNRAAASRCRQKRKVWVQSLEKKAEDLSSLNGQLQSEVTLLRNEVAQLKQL
Q55R: -1.38 natural log
A46E: -1.39 natural log
E54V: -1.41 natural log
L45H: -1.56 natural log
A40C: -1.34 natural log
I28K: -1.51 natural log
K36H: -1.48 natural log
E32Y: -1.44 natural log

For quick reference, copied from above (block 2):
ACGC: 0.621 fold
GUUA: 1.36 fold
UUCC: 0.56 fold
ACUU: 0.903 fold
UUUA: 1.13 fold
